Results collected from several papers.
Each line is one published result; not all experiments were run side by side. Values joined by “and” are separate records of one study, mostly repeats; a detail may differ. ± gives the spread as reported. In brackets after ≈: the same amount, converted by molar mass.

The absorbed dose of `C[N+](C)(CCOCCOCCOCCNC(=S)Nc1ccc(C[C@H]2CN(CC(=O)[O-])CCN(CC(=O)[O-])CCN2CC(=O)[O-])cc1)C[c-]1cccc1.[64Cu+2].[Fe+2].c1cc[cH-]c1` is reported as 2.22 µSv/MBq (human adult male, heart wall; extrapolated from mouse biodistribution).
For `CN1CCC[C@]1(C)/C=C/S(=O)(=O)NC(=O)Nc1c2c(cc3c1CCC3)CCC2`, “subjects with adverse event” read 0% (item: gastrointestinal disorders; human; oral, 12.5 mg twice daily, 14 days, multiple ascending dose).
The tissue uptake of `CC(C)C[C@H](NC(=O)[C@@H](CCCCNC(=O)[C@@H](Cc1ccccc1)NC(=O)CCCCCCCNC(=O)CN1CCN(CC(=O)O)CCN(CC(=O)O)CCN(CC(=O)O)CC1)NC(=O)[C@H](Cc1ccc(O)cc1)NC(=O)[C@H](CO)NC(=O)[C@H](Cc1c[nH]c2ccccc12)NC(=O)[C@H](Cc1c[nH]cn1)NC(=O)[C@@H]1CCC(=O)N1)C(=O)N[C@@H](CCCNC(=N)N)C(=O)N1CCC[C@H]1C(=O)NCC(N)=O` [indium-111 labelled] is reported as 0.09 ± 0.07 %ID/g (male athymic nude mice, DU-145 prostate cancer xenograft, brain; intravenous, dose not given, 1 h, added: unlabeled blocking peptide 10 µg).
`O=C(O)CCCOc1ccc([18F])cc1-c1cc(-c2ccccc2C(F)(F)F)n(-c2ccccc2)n1` has an absorbed dose of 5.83 µGy/MBq (OLINDA/EXM from mouse data; human adults, skin).
The solubility of `O=S1(=O)CC2CCCCC2CS1` (stereo not drawn) is reported as 57.3 mM (≈ 11.8 mg/mL) (phase solubility, NMR; water; 25 °C, added: hydroxypropyl-β-cyclodextrin 526 mM).
For `C=C(NC(=O)c1csc(-c2nc3c(cc2O)-c2nc(cs2)C(=O)NC(C(C)O)C(=O)NC(=C(C)OC)c2nc(cs2)C(=O)NC2c4nc(cs4)C(=O)NC(COC(=O)c4c5c6c(cccc6n4O)COC(=O)C(OC4CC(C)(O)C(N(C)C)C(C)O4)C2OC5)c2nc-3cs2)n1)C(N)=O` (stereo not drawn), the Cmax was 11300 ng/mL (female cynomolgus monkey, plasma; intravenous, 1 mg/kg, single dose, infusion).
For `COc1ccc2c(c1)C(C)(C)C(/C=C/C1=C(Oc3ccc(C(=O)NCCCCOc4cc(CN(Cc5ccccn5)Cc5ccccn5)cc(CN(Cc5ccccn5)Cc5ccccn5)c4)cc3)C(=C/C=C3/N(CCCCS(=O)(=O)[O-])c4ccc(OC)cc4C3(C)C)CCC1)=[N+]2CCCCS(=O)(=O)[O-].O=[N+]([O-])[O-].O=[N+]([O-])[O-].[99Tc+].[C-]#[O+].[C-]#[O+].[C-]#[O+].[Zn+2]`, the tissue uptake was 1.64 %ID/g and 29 %ID/g and 1.48 %ID/g and 0.73 %ID/g (BALB/c mouse, Staphylococcus aureus myositis, lungs; 12 h).
With `CC(=O)N([O-])CCCCCNC(=O)CCC(=O)N([O-])CCCCCNC(=O)CCC(=O)N([O-])CCCCCN.[89Zr+4]` the intact complex was 88.9 ± 0.3% (radio-TLC; aqueous buffer; 7 d, pH 8.5, 37 °C, 89Zr-labelled complex, added: DTPA 100-fold excess).
`CC[C@H](C)[C@@H]1NC(=O)[C@H](Cc2ccc(O)cc2)NC(=O)CCCSC[C@@H](C(=O)N(CC(=O)N[C@@H](CC(C)C)C(=O)NCC(N)=O)Cc2ccc(F)cc2)NC(=O)[C@H](CC(N)=O)NC(=O)[C@H](CCC(N)=O)NC1=O` — result for “treatment-emergent adverse events”: 50% (human; intranasal and intravenous, 400 µg intranasal and 20 µg intravenous).
`CCN(CC)c1ccc2c(c1)O[B-]1(c3c(C)cccc3C)OC(=O)C(c3ccccc3)=N[N+]1=C2` (stereo not drawn): “hydrolysis activation energy” 21.8 kcal/mol (UV/vis decay; aqueous buffer).
`Cc1cc(-c2ccc(C(=O)[C@@H]3CCCC[C@H]3C(=O)Nc3cnn4c3C(=O)NCC4)cc2)[nH]n1`: “cumulative radioactivity recovery” 6.63% and 4.82% and 6.1% and 6.34% and 4.85% and 5.48% (human, urine; oral, 200 mg, 0-48 h; reference: dose).
For `Cc1nc(N)nc2c1C(=O)N[C@@H](c1ccc(F)cc1-c1cccc(O[11CH3])n1)C2`, the tracer uptake was 0.4 ± 0.2 %ID (ex vivo biodistribution; mice, U87 subcutaneous xenograft, urine; 60 min post-injection, baseline, vehicle pre-treatment).
Under “mean corpuscular volume”, `COc1ccc2c(c1)CCn1c[n+]3c(c1-2)-c1ccc(OC)cc1CC3` is recorded as 47.6 ± 0.87 fL (female NSG mice, blood; 6 mg/kg, day 14, 5 days per week).
`C=CS(=O)(=O)c1ccc(OC)c(-c2c[nH]c3ncc(-c4cncc(C(=O)N(C)C)c4)cc23)c1` gave a hydrolytic half-life of over 24 h (HPLC; 50 µM, 37 °C, no lysine, followed to 24 h).
With `O=C(Nc1cnccc1-c1ccc([18F])cc1)c1ccnc(NC(=O)C2CC2)c1` the SUV was 10.4 (ex vivo gamma counting; GSK-3β transgenic mice, late-stage, liver; intravenous, 120 min, mean, P-gp inhibitor pretreatment, added: tariquidar 15 mg/kg iv).
For `Cc1nn(-c2nc3c(F)cc(F)cc3s2)c(O)c1C(c1ccc(C(F)(F)F)cc1)c1c(C)nn(-c2nc3c(F)cc(F)cc3s2)c1O`, the terminal half-life was 6.74 h and 8.98 h and 5.18 h (ICR mouse, plasma; intraperitoneal, 10 mg/kg).
`C=CC(=O)Nc1cc(Nc2nccc(-c3c[nH]c4ccccc34)n2)c(OC)cc1N(C)CCN(C)C` gave a recovery of 92.7% (storage stability; human plasma; 2 h, on ice, MQC level).
For `CN1CCC[C@]1(C)/C=C/S(=O)(=O)NC(=O)Nc1c2c(cc3c1C(O)CC3)CCC2` (stereo partly drawn), “AUC(0-24) accumulation ratio” read 1.3 (human, plasma; oral, 100 mg twice daily of parent drug, metabolite of dosed drug; reference: day 14 over day 1).
`Cc1ccc(CN2C(=O)/C(=N\c3ccc(Cl)cc3Br)c3ccccc32)cc1` has a haemoglobin of 142 ± 4.82 g/L (mouse, blood; 150 mg/kg).
For `CN1C(=O)[C@@H](Cc2ccc(O)c(I)c2)NC(=O)CNC(=O)[C@H](Cc2ccc3ccccc3c2)NC(=O)[C@H](CCCNC(=N)N)NC(=O)[C@H]1CCCNC(=O)c1ccc(CNC(=O)CN2CCN(CC(=O)O)CCN(CC(=O)O)CCN(CC(=O)O)CC2)cc1` [lutetium-177 labelled], “absorbed dose coefficient” read 0.011 mGy/MBq (extrapolation method 1, OLINDA/EXM, item: 177Lu radioactivity; human, extrapolated from mice, stomach wall).
Under “hydrolysis activation energy”, `CCN(CC)c1ccc2c(c1)O[B-]1(c3ccccc3C)OC(=O)C(c3ccccc3)=N[N+]1=C2` (stereo not drawn) is recorded as 22.6 kcal/mol (UV/vis decay; aqueous buffer).
`CN1CCC[C@]1(C)/C=C/S(=O)(=O)NC(=O)Nc1c2c(cc3c1CC(O)C3)CCC2` (stereo partly drawn) gave an AUC(0-24) of 17400 ng·h/mL (human, plasma; oral, 12.5 mg twice daily of parent drug, day 1, metabolite of dosed drug).
The Cmax of `C/C(N)=N/C(=N\S(=O)(=O)c1ccc(C(F)(F)F)cc1)N1C[C@H](c2ccccc2)C(c2ccc(Cl)cc2)=N1` is reported as 1190 ng/mL (female cynomolgus monkey, plasma; oral, 6 mg/kg).
For `O=C([O-])CN1CCN(CC(=O)[O-])CCN(CC(=O)NC[C@H]2CC[C@H](C(=O)N[C@H](Cc3cnc4ccccc4c3)C(=O)NCCCC[C@H](NC(=O)N[C@@H](CCC(=O)O)C(=O)O)C(=O)O)CC2)CCN(CC(=O)[O-])CC1.[64Cu+2]`, the tissue uptake was 17.8 %ID/g (ex vivo gamma counting; 22Rv1 tumour-bearing mice, tumor; intravenous, 0.74 MBq, 6 h post-injection).
With `O=C(NC1CCCCC1)c1ccnc(N2Cc3cn(Cc4ccc(F)cc4)nc3C2)n1` the half-life was 0.217 h (metabolic stability; human, liver microsomes).
For `O=C(Nc1cnccc1-c1ccc([18F])nc1)c1ccnc(NC(=O)C2CC2)c1`, the SUV was 0.166 (mice, transgenic, GSK-3β, early-stage, heart; intravenous, dose not given, 120 min, added: tariquidar 15 mg/kg i.v. pre-dose).
Under “gastrointestinal adverse events”, `CC(C)(O)c1ncc([S@](N)(=O)=NC(=O)Nc2c3c(cc4c2CCC4)CCC3)s1` is recorded as 33% (healthy human; oral, 30 mg single dose, capsule formulation).

Some of these lines once more:
With `O=C(Nc1cnccc1-c1ccc([18F])cc1)c1ccnc(NC(=O)C2CC2)c1` the SUV was 10.4 (ex vivo gamma counting; GSK-3β transgenic mice, late-stage, liver; intravenous, 120 min, mean, P-gp inhibitor pretreatment, added: tariquidar 15 mg/kg iv).
For `Cc1nn(-c2nc3c(F)cc(F)cc3s2)c(O)c1C(c1ccc(C(F)(F)F)cc1)c1c(C)nn(-c2nc3c(F)cc(F)cc3s2)c1O`, the terminal half-life was 6.74 h and 8.98 h and 5.18 h (ICR mouse, plasma; intraperitoneal, 10 mg/kg).
`C=CC(=O)Nc1cc(Nc2nccc(-c3c[nH]c4ccccc34)n2)c(OC)cc1N(C)CCN(C)C` gave a recovery of 92.7% (storage stability; human plasma; 2 h, on ice, MQC level).
